Assay results of several laboratories.
± gives the spread as reported.

SMILES	target or system	test	test system	setting	how to read	endpoint	result
COC1CN([C@H]2CC[C@H]([C@@]3(C)Oc4c(Cl)cc(C(=O)NCc5c(SC)cc(C)[nH]c5=O)c(C)c4O3)CC2)C1		RNA-seq, item: HOXA4	human, whole blood	dose not given, 24 h	baseline: pretreatment baseline	log2 fold change	2.46
CN1CCC(N[C@H]2CCc3[nH]c4c(C(N)=O)ccc(-c5ccccc5Cl)c4c3C2)CC1	BGC-823	cell growth or viability				IC50	1480 nM
CCOc1cncc(-c2ccc(NC(=O)C3(c4ccnc(NS(=O)(=O)C5CC5)n4)CCOCC3)nc2)n1	lung cancer	cell viability, CellTiter-Glo	DMSO 0.1%	72 h, line code 2478		IC50	132 nM
Nc1ncc(-c2cc(-c3cnn(CC(F)(F)F)c3)ncc2F)nc1C(=O)NC1CNCC(F)C1 (stereo not shown)	KIT	KINOMEscan competition binding		1 µM	baseline: DMSO control	remaining binding	100%
CN1CCCNC(=O)c2cccc(c2)C(=O)NCCCN(C)CCCNc2cccc3c2C(=O)c2cccc(c2C3=O)NCCC1	SAS	RNA-Seq, item: AASDHPPT mRNA		1 µM, 6 h	baseline: untreated cells	log2 fold change	0.494
CC(C)(O)c1ncc([S@](N)(=O)=NC(=O)Nc2c3c(cc4c2CCC4)CCC3)s1		item: Vascular disorders	healthy human volunteers	oral, 10 mg once daily, 14 days, capsule formulation		subjects with adverse events	17%
COc1c(C)c(OC(=O)c2ccc3ccccc3c2)c(C)c(O)c1C(=O)/C=C/c1ccccc1	FaDu	cell growth or viability, SRB		72 h		IC50	> 50000 nM
Cc1ncsc1-c1ccc(C(C)NC(=O)C2CC(O)CN2C(=O)C(NC(=O)CCCCCCCCCCN2CCCC(Nc3ncc(Cl)c(Nc4ccccc4S(=O)(=O)C(C)C)n3)C2)C(C)(C)C)cc1 (stereo not shown)	22Rv1	RNA-seq, item: MGME1 mRNA		concentration not given	baseline: DMSO	log2 fold change	-1.18
O=C(Nc1ccc(OCc2ccccc2)cc1)OCCn1ncc2ccccc2c1=O	HEK293 reporter cells	γ-carboxylation, reporter		with: vitamin K 10 µM		IC50	546 nM
COC(=O)N1c2ccc3c(nc(Cc4ccccc4)n3[C@@H]3CCC[C@@H](C(=O)O)C3)c2CC[C@@H]1C	MDA-MB-175-VII	cell growth or viability, ATP luminescence		10 days		IC50	3610 nM
COc1ccc(CCN(C)CCCC(C#N)(c2ccc(OC)c(OC)c2)C(C)C)cc1OC (stereo not shown)	Trypanosoma cruzi	reporter mRNA translation, inhibitor, item: Renilla luciferase mRNA	cell-free extract	concentration not given, test 1	baseline: positive over negative control	translation activity	102%
Cc1ccc(-n2cc(CSc3nc4ccccc4n3Cc3cn(-c4ccc(C)cc4)nn3)nn2)cc1	HEK293	cell viability, MTT				IC50	30.2 µg/mL
COc1ccc2c(c1)Cc1c-2nc(N)c(C#N)c1-c1ccc(CO)o1	HBP-ALL	cell viability, CellTiter-Glo			no inhibition at 100 µM	IC50	23200 nM
COc1ccc(NC(=O)c2ccc3[nH]c(-c4ccc(N(C)C)cc4)nc3c2)cn1	YAPC	cell growth, CellTiter-Glo				IC50	5730 nM
CC(C)=CC1OC(C)(C)C2C=C3C(=O)C(Cl)=CC(O)C3C3C(O)C4OC4C(=O)C132 (stereo not shown)	HEL	cell growth or viability, MTS				IC50	1410 nM
CC(C)c1ccc(N(C)c2ccc3c(c2)OCC[C@H]3CNc2cnccc2C(=O)O)cc1	FTC-133	cell growth or viability, ATP luminescence		7 days		IC50	7.49 nM
CNS(=O)(=O)Nc1nccc(Cc2c(C)c3ccc(Oc4ncccc4F)cc3oc2=O)c1F	SHP77	cell viability		7 days		IC50	4.7 nM
CCCCCCCC(=O)[O][Pt]([Cl])([Cl])[O]C(=O)CCCCCCC.N.N	A549/DDP cisplatin-resistant	MTT		48 h, non-transfected		IC50	3320 ± 2260 nM
CC1(C)CC(=O)C(C2C3=C(CC(C)(C)CC3=O)Oc3ccc(Cl)cc32)=C(O)C1 (stereo not shown)	3T3-L1	cell growth or viability, MTT		72 h		IC50	12.4 µg/mL
C=CC(=O)N1CCCC(n2c(=O)c3ncccc3n(Cc3ccc(Oc4ccccc4)cc3)c2=O)C1 (stereo not shown)	DB	cell proliferation, MTT		72 h		IC50	625 nM
Cn1ncc(-c2ccc3c(=O)[nH]nc(CN)c3c2)c1-c1c(F)c(Cl)cc(OC2CC2)c1C#N	MOLP-8	cell viability, inhibitor, CellTiter-Glo		120 h, baseline-subtracted		IC50	160 nM
C=CC(=O)Nc1cccc(Cn2ncc3cnc(Nc4cnn(CCOC)c4)nc32)c1	CASK human	binding, KINOMEscan		100 nM	lower = stronger binding	percent of control	99%

A few entries again:
SMILES	target or system	test	test system	setting	how to read	endpoint	result
C=CC(=O)N1CCCC(n2c(=O)c3ncccc3n(Cc3ccc(Oc4ccccc4)cc3)c2=O)C1 (stereo not shown)	DB	cell proliferation, MTT		72 h		IC50	625 nM
Cn1ncc(-c2ccc3c(=O)[nH]nc(CN)c3c2)c1-c1c(F)c(Cl)cc(OC2CC2)c1C#N	MOLP-8	cell viability, inhibitor, CellTiter-Glo		120 h, baseline-subtracted		IC50	160 nM
